# Assay results pooled from the literature.
# Each numbered part is a random draw from the data of one study; scales do not carry over between parts.

# Set 1
# Target: Histone acetyltransferase KAT6A, winged helix 2, GST fusion (KAT6A, Homo sapiens, UniProt Q92794, residues 85-181)
# Technique: protein binding microarray
# Molecule type: double-stranded DNA, one strand shown
# Matrix: in vitro
# Tested at: not given
# Notes: 8-mer, flanks averaged, mean of 2 arrays, mostly near background
# Baseline: not given
# Direction: higher = stronger binding
# Construct (chain): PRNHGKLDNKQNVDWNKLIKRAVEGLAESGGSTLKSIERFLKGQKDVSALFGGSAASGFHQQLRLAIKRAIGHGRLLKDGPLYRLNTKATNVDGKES
Strand,E-score
ACCGAGAG,0.154
GGTCCTTA,-0.00602
AGTATAGC,-0.0141
ACTTTCCA,-0.109
ATATTAAA,0.211
AAGGGAGA,-0.0127
ATGCACCA,0.0374
ACTGGTCA,-0.0272
CGTCCATA,0.0525
GCCTAAAA,0.085
ACACTGCT,-0.172
ACCTGTTA,-0.202
GTGAGCGA,0.125
AAATCAAT,0.148
GCAAGAGC,0.146
CAGTGATG,0.0607
TAGCATAA,-0.109
CCCGACCA,0.151
CACGAGAG,-0.157
GATCTAGA,-0.102
GTTAGCAA,0.0355
CCCCCCAG,-0.0725
GGTAGACA,-0.0762
CAGCTCTC,0.0901
GCCTAGCA,0.0046

# Set 2
# Target: Sal-like protein 4, full length isoform B (SALL4, Homo sapiens, UniProt Q9UJQ4-2, residues 1-616)
# Technique: universal PBM
# Molecule type: double-stranded DNA, one strand shown
# Matrix: in vitro
# Tested at: not given
# Notes: 8-mer, flanks averaged, mean of replicates
# Direction: higher = stronger binding
Strand,E-score
CGAATCCG,-0.233
CATGAACG,-0.0757
AAAGCCGA,-0.173
AGTGCCAC,-0.157
AGCCGCAA,-0.231
ATGCCCGG,-0.221
GCGCCGCA,-0.343
TAAGAGCA,0.0124
AAACGGAC,-0.0739
CCAGACTA,-0.0896
TGCTACCA,-0.1
CCATGTGC,-0.135
CCCCATCA,-0.0934
AAATGTGG,0.149
ACCGTGAT,0.0808
CAACGCAC,-0.0985
AGAGTTGG,-0.0821
AGGCGCGA,-0.183
CATCAAAG,-0.0572
CACTATTA,0.215
CGGGCACC,-0.24

# Set 3
# Target: Ras GTPase-activating protein-binding protein 1, full length (G3BP1, Homo sapiens, UniProt Q13283)
# UniProt Q13283, sequence (whole entry, looked up): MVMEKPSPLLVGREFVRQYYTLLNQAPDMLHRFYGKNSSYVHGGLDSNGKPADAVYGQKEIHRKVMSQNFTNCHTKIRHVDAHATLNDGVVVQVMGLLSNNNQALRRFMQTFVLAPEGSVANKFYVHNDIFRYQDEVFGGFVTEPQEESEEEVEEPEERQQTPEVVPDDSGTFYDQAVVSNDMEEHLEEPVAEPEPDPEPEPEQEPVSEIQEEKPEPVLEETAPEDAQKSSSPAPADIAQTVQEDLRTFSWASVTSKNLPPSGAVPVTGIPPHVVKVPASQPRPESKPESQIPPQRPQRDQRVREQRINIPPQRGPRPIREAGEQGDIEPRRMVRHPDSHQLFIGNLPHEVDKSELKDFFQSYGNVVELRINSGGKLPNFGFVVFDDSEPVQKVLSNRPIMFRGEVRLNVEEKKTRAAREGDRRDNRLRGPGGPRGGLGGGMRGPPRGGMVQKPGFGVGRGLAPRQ
# Technique: RNA Bind-n-Seq
# Molecule type: RNA
# Matrix: in vitro
# Tested at: 200 nM
# Notes: whole 134-nt RNA, ends assumed
# Together with: 150 mM KCl
# Baseline: input library
# Direction: higher = stronger binding
Strand,log2 enrichment
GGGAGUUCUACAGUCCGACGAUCCUCAAGUCCUGUGCUACACAUCGUAUGUACCGAAUCGGUUUUUGGUGGUUUGGAAAGUAUUAUGUUACGCCGUUCGGAUCUGCACUUCCAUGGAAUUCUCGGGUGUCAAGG,-0.571
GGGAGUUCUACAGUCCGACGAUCGUCCUGUGCUACACAUCGUAUGUACCGAAUCAAACCCAAACCCCCCCAAAUUUUUAAAAAAGUAUUAUGUUACGCCGUUCGGAUCUGCACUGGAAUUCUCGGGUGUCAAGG,-0.278
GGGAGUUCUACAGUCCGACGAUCGUCCUGUGCUACACAUCGUAUGUACCGAAUCGGGAAAAAAAGGGUUUUUUUGGGAGGGAAAGUAUUAUGUUACGCCGUUCGGAUCUGCACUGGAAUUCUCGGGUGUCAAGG,-0.156
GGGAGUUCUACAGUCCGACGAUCUGGGAGGUGGAUUUUGUUUAUUUUUUUAGCUCAUUACCAGGGGUGGGAAUUUUUUUUUAAUAUGUGUCAUGAAUAAAGUUGUUUUUGAAAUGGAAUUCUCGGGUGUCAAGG,0.0959
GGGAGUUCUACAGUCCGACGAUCUGUGCUACACAUCGUAUGUACCGAAUCGGGGUUUUUUUGGGGUUUUUUUGGGUUUUUUUGGGAAAGUAUUAUGUUACGCCGUUCGGAUCUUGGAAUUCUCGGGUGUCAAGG,-0.712
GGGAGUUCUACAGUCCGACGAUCAAGUCCUGUGCUACACAUCGUAUGUACCGAAUCGGUUUGGUUUUUGGUUUUUUUGGAAAGUAUUAUGUUACGCCGUUCGGAUCUGCACUUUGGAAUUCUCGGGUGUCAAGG,-1.33
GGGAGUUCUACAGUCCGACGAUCCCUGUGCUACACAUCGUAUGUACCGAAUCGGGGUUUGGGGAAAAAAAGGGGAAAAAGGGGAAAGUAUUAUGUUACGCCGUUCGGAUCUGCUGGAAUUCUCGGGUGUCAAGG,0.00633
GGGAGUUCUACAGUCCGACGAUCUCAAGUCCUGUGCUACACAUCGUAUGUACCGAAUCGGGUUUGGGUGGGUUUGGGAAAGUAUUAUGUUACGCCGUUCGGAUCUGCACUUCCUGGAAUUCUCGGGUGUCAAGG,1.04
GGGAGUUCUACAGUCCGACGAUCCCUGUGCUACACAUCGUAUGUACCGAAUCGGGGUUUGGGGAAAAAGGGGAAAAAAAGGGGAAAGUAUUAUGUUACGCCGUUCGGAUCUGCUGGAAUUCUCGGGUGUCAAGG,-0.0946
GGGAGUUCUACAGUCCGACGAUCGCAGGAAGUAAAAACAAAUGGAAAUGCUUCGGAUAGUGGCAGGGGUGGGGGUUGCUAAGGAACGGGUGGGAUGGGAGUGGGUAAAGAGUUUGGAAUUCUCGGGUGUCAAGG,0.722

# Set 4
# Target: RNA binding protein fox-1 homolog 2, RRM domain, GST-SBP tag (RBFOX2, Homo sapiens, UniProt O43251-10, residues 100-194)
# Technique: RNA Bind-n-Seq
# Molecule type: RNA
# Matrix: in vitro
# Tested at: 365 nM
# Notes: natural RNA segment, single round, ends assumed
# Baseline: no-protein control
# Direction: higher = stronger binding
# Residues (chain): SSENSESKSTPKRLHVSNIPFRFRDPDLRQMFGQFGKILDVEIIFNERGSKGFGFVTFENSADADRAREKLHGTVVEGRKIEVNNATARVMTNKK
Strand,RBNS enrichment (R)
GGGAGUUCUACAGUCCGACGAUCUAUUUUUGGUAACUCCCAUGGCAGCUCCUAGGAUUUCAGCGGUCUGUGGGCCAGAAAGCAGGCACCAGGGCUGACCUCAAGGCCGUAUCAGAGGGCCAAGCAGAGUUCUUUGGAAUUCUCGGGUGCCAA,0.399
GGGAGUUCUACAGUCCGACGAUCACAGUCCCUGGAAUUAACAGAUCAGAAUGUUCACACUGGUUAAUCUUUUUUUAACAAUGAGCAUGAAGGUAGCAGAAGCUGGUGUGUUUCCAGAUGGUUCUUCUAACCAAUGGAAUUCUCGGGUGCCAA,2.76
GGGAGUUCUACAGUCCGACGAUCGGGAGGGCGCGCUGCUGGUCCACAUUGGCUCCAUGGGGGAGCCCUCCCCUUGAGUUGGGGCUGAUAUAGCAGGAGUGAAUCUUGUGGGGGAGUUUUUUUCCUCCACAUUUUGGAAUUCUCGGGUGCCAA,0.374
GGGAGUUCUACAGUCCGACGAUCCCUUUUUCUUCUCUCUUCCUUUUAUUUUUUUCUGAAUCCUUUUAUUUUGUGUUAACAGAAAUUCAUAUUUGGUGUGGCUUAAUGUAUUUUGGAAGGUCAUCAGAUUGUGAUGGAAUUCUCGGGUGCCAA,0.643
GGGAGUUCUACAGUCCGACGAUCUCUUUGUUUGGAAACUCCCUCAUCGACAUUGCUAUUGGAUUGUAAAGAGGGGCCCAGUAUCAGUUUGUUGAAUUUGUCAAAUCUUUUCCUGGACAUAAAUGAGACUAUUGUGGAAUUCUCGGGUGCCAA,1.3
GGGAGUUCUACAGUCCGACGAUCUUUGAAAUGCUUUACAAAGGAAAACUGCAUGCCACAUGAGAAAACUUCAAAGUACACUUGCAAUGCAGUGUAUGCCUGUAGUUGCUGCUGCCACCGGCAGGGGGCCUUUGUGGAAUUCUCGGGUGCCAA,5.11
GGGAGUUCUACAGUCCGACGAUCUUUUUUGGUGUUUUAAUGGGCCCAGAACUGUGGUUUAAAUUUUUAUGUAUGUAUUUUCUUUUUUGUGGAGUAUAAAUUUAAAAACUGGAUUUGGGACCUAAAAUACUCCUUGGAAUUCUCGGGUGCCAA,1.82
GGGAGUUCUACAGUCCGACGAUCUCUGGGCAAGUGGAUAUUUAUUAGGCUAUUUCAAAGCCACAGCAUAAGAAUGUCAGCCUAGCCACAGAGUCUGAGAUUCUGAGUUCAGCCUAGCCACAGAGUCUAAGAUUUGGAAUUCUCGGGUGCCAA,0.266
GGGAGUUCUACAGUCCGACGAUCACAGAUACAGUCUCCUUGGCUUAUAGGACUUCCUAGCUACACUUUCCUUAGCGCAUUAAUGUGAUGCUCACUCUGUGUUAAAACUGCAGCCGUUGUCUUUCUCAACUGCUUGGAAUUCUCGGGUGCCAA,0.274
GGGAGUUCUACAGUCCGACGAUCCUGAUGAGUGCUGAUGGGCUAACCCUACCCUGUACAAGGGCUCAUAAGGCUACUAAGCAUUAGGGCCAAUUAAAGAAUUUUAGUUUCCCUUUCUCAGACAAAUAGCUUUUUGGAAUUCUCGGGUGCCAA,0.276
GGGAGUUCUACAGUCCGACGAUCGGUAAUGAGCCCCAGCAACUGUCCUCAGCCCCUCUUCCCCUCAUUUGUUCCUUCUGUCCUUCCAACACAGAGACUGUUAGAGAUGAAAGUUUGGACGGUACUAAAGUCACUGGAAUUCUCGGGUGCCAA,0.664
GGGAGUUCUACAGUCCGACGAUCGAAUGUAAUUUUCUCAGAAUUUACACUCAUUUGCAGUCAUUUAUUUCAAAAGAUAAAAGAGAAUAAUGGGUUCUUUGUAUUGGCACUUUGCACCAGAAGCAUAUCAUUAUUGGAAUUCUCGGGUGCCAA,0.854

# For quick reference, copied from above (set 2):
Strand,E-score
CGAATCCG,-0.233
CATGAACG,-0.0757
AAAGCCGA,-0.173
AGTGCCAC,-0.157
AGCCGCAA,-0.231
